{"data": "Published values gathered from unrelated publications", "note": "Numbered parts are unrelated; each lists some results of a single study."}
{"data": "Study 1", "target": "Histone acetyltransferase KAT6A, both winged helices, GST fusion (KAT6A, Homo sapiens, UniProt Q92794, residues 1-181)", "method": "protein binding microarray", "molecule type": "double-stranded DNA, one strand shown", "medium": "in vitro", "tested at": "not given", "setting": "8-mer, flanks averaged, mean of 2 arrays, mostly near background", "reference": "not given", "reading": "higher = stronger binding", "Residues (chain)": "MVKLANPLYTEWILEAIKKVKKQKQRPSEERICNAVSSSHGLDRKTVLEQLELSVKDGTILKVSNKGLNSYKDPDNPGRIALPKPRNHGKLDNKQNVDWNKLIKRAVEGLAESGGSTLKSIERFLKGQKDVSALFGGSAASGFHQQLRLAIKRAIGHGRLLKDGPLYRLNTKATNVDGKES"}
{"Strand": "ATACGAGG", "E-score": -0.0655}
{"Strand": "AAGTCCGG", "E-score": 0.0627}
{"Strand": "AGAAGTTC", "E-score": -0.0919}
{"Strand": "TAGCATCA", "E-score": -0.0973}
{"Strand": "AACTTCAT", "E-score": -0.0864}
{"Strand": "GCCAACTA", "E-score": -0.0435}
{"Strand": "AGATACTG", "E-score": -0.181}
{"Strand": "ACCACAAT", "E-score": -0.182}
{"Strand": "ATGAGAAA", "E-score": -0.127}
{"Strand": "ACTCGACT", "E-score": -0.304}
{"Strand": "GAACCTCC", "E-score": -0.102}
{"Strand": "CGCCAGCG", "E-score": 0.295}
{"Strand": "CCCTGTCG", "E-score": 0.00358}
{"Strand": "ACGAAAAA", "E-score": -0.0953}
{"Strand": "ACGGGAAC", "E-score": 0.349}
{"Strand": "GAGATCAC", "E-score": -0.122}
{"Strand": "GTTTGGCA", "E-score": -0.158}
{"Strand": "CTAGTAAA", "E-score": 0.061}
{"Strand": "GAATTGCC", "E-score": 0.101}
{"Strand": "ATGCCGGC", "E-score": 0.287}
{"Strand": "ACTCTGCT", "E-score": -0.24}
{"Strand": "ACAAAGGG", "E-score": -0.244}
{"Strand": "CGCTCGAA", "E-score": 0.063}
{"Strand": "CCTGGTCC", "E-score": -0.197}
{"Strand": "GAATTCTC", "E-score": 0.0264}
{"data": "Study 2", "target": "PABPC1L2, full length, GST fusion (mouse, UniProt A0ABA7IW68)", "method": "RNAcompete", "molecule type": "RNA", "medium": "in vitro", "tested at": "20 nM", "setting": "7-mer, probes averaged, single round", "reference": "mean of 7-mers", "reading": "higher = stronger binding", "Construct (chain)": "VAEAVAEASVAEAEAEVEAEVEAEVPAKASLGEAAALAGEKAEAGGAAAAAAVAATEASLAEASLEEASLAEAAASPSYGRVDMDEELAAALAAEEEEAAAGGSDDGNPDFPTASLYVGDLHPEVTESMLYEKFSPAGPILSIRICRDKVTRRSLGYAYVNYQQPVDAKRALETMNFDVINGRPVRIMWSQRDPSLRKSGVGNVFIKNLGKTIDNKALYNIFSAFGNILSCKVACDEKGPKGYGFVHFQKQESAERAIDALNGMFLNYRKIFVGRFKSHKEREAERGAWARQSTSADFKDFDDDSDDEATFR"}
{"Strand": "CUGAUCA", "7-mer Z-score": -0.121}
{"Strand": "CGUCUGC", "7-mer Z-score": -0.429}
{"Strand": "GGCCCCG", "7-mer Z-score": -0.441}
{"Strand": "UAGCGAA", "7-mer Z-score": -0.0464}
{"Strand": "GGGGACA", "7-mer Z-score": 0.383}
{"Strand": "CGAAGCU", "7-mer Z-score": 0.0533}
{"Strand": "AUGACUG", "7-mer Z-score": -0.146}
{"Strand": "UGCAACA", "7-mer Z-score": 0.017}
{"Strand": "GCGCAUU", "7-mer Z-score": -0.229}
{"Strand": "ACGGCCG", "7-mer Z-score": -0.251}
{"Strand": "UCGGCGC", "7-mer Z-score": -0.237}
{"Strand": "AUAGUUU", "7-mer Z-score": -0.316}
{"Strand": "GGAUUCC", "7-mer Z-score": -0.157}
{"Strand": "UUUACGA", "7-mer Z-score": 0.0877}
{"Strand": "UGACCCU", "7-mer Z-score": -0.197}
{"Strand": "CAUUGCU", "7-mer Z-score": -0.251}
{"Strand": "CAUUAUU", "7-mer Z-score": -0.202}
{"Strand": "CGCUCGC", "7-mer Z-score": -0.356}
{"Strand": "UUCGCAU", "7-mer Z-score": -0.421}
{"Strand": "CGGGAAA", "7-mer Z-score": 0.715}
{"Strand": "GCCUGAG", "7-mer Z-score": -0.0409}
{"Strand": "CUAUCAU", "7-mer Z-score": -0.173}
{"Strand": "UGUGAGC", "7-mer Z-score": -0.142}
{"Strand": "UACCAGG", "7-mer Z-score": -0.184}
{"Strand": "CGCGCUG", "7-mer Z-score": -0.331}
{"data": "Study 3", "target": "RNA binding protein fox-1 homolog 2, RRM domain, GST-SBP tag (RBFOX2, Homo sapiens, UniProt O43251-10, residues 100-194)", "method": "RNA Bind-n-Seq", "molecule type": "RNA", "medium": "in vitro", "tested at": "365 nM", "setting": "natural RNA segment, single round, ends assumed", "reference": "no-protein control", "reading": "higher = stronger binding", "constant ends, left off below": "GGGAGUUCUACAGUCCGACGAUC … UGGAAUUCUCGGGUGCCAA", "Target sequence (chain)": "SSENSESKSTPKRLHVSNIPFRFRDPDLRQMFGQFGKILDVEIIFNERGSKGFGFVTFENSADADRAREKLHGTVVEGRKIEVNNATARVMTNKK"}
{"Strand": "UGAUCAUAUAUAUGUGUGUGUGUAUGUAUAUGUAUGUGUGUGUGUGUAUAUAUAUAUAUAUAUAUAUAUAUAGCCACACAUGAUCAUACUUAUAUAUGAUGUUUCCAUAU", "RBNS enrichment (R)": 1.91}
{"Strand": "UUUAAUAUUUUUCAUUUAGCUAUAUAAUAAAAUUCACUAGGAAAAUCAUUUAAAGUUGAAAGAAAAAUAUUUAUAUAUUUUAUGAACCACAAGGACACUUUAAAACCUUA", "RBNS enrichment (R)": 0.727}
{"Strand": "CCUGAGGGGCACUCAGCCAGCUCUGACCAGGACCCUGUGGCAGACAGAGAGGGCAGCCCGGUCUCCGGCAGCAGCCCCUUCCAGCUCACGGCUUUCUCCGAUGAAGACAU", "RBNS enrichment (R)": 0.375}
{"Strand": "GCAAGGUGCUUACUGUCACCUGAUGCCAUACACAUGGUCCCAGGCCCACACCCGGGGGGCCUCUGUUCAUAGCGGCACAUGCAUUUCCCCACCGCGUCUUGUCUGCAGCU", "RBNS enrichment (R)": 0.528}
{"Strand": "UCCUACCUUGCUUUCUAGAAAGGCUUUUGCUCCAUACUUCCCUUAAUCUCAGAAUGGAUGGAAAAGAGGAAGACAUUAGGGACUGUCAGGUCCAUUUAAAGAGGAAAUUA", "RBNS enrichment (R)": 0.972}
{"Strand": "GACUGGCCAUUAUGCAUCCCCUUUUCUUUCCAGUGCCCAGUAUGCUGUUUUGAGGUGUCAAAUACAAAUAAAUCUGGGCUUAGGGAAGGAGAGACCUUAUUCCAAAGCAC", "RBNS enrichment (R)": 0.414}
{"Strand": "AAUAGAGAUUUACUUUAGGGGUCCCAUGGUUGGUAGCCCACAGCUUCUUCUAAAGGGCAUUGGCCUCUCAGGUGAACUUGCAGAGACUUGGCCAAAUUUGCUUCCUCUUU", "RBNS enrichment (R)": 0.315}
{"Strand": "GACAGUUCCAAUGAGAUAACACUAUCAGCUUGUCUGGUAGAGCACCCCCUGCCUCACAUGGGGAGCACUGUUCAGAGCACACACUGGGGAGUUCUGACUUUGGCCAUUAG", "RBNS enrichment (R)": 0.412}
{"data": "Study 4", "target": "Ras GTPase-activating protein-binding protein 1, full length (G3BP1, Homo sapiens, UniProt Q13283)", "method": "RNA Bind-n-Seq", "molecule type": "RNA", "medium": "in vitro", "tested at": "200 nM", "setting": "whole 134-nt RNA, ends assumed", "together with": "150 mM LiCl", "reference": "input library", "reading": "higher = stronger binding", "all molecules": "7-deaza-guanosine replaces G", "constant ends, left off below": "GGGAGUUCUACAGUCCGACGAUC … UGGAAUUCUCGGGUGUCAAGG", "sequence of UniProt Q13283 (whole entry, looked up)": "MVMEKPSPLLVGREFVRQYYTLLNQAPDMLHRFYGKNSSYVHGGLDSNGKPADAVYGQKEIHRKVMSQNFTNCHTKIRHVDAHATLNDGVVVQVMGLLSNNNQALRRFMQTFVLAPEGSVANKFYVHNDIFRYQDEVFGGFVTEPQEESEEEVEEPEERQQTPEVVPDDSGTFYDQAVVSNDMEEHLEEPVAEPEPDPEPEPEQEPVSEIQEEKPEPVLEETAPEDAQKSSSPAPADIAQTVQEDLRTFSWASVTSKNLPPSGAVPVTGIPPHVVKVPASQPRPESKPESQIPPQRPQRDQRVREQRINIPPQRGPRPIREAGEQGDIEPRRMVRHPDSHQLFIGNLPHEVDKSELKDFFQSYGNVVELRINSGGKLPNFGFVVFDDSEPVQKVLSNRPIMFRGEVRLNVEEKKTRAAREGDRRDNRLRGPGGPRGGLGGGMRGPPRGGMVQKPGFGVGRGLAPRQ"}
{"Strand": "CACAGACAACACUCACCCACACAGACACAGAGGGAAGGGGUUGGGAUGGGGACAGGGUGCACAGCAGGGCGGGGUAGGACCCCAGCCCCU", "log2 enrichment": -0.146}
{"Strand": "UGGCCCUGGUGGCAUGCGGGGAGGAAGAGGUGGCCUCAUGGAUCGUGGCGGUCCCGGUGGAAUGUUCAGAGGUGGCCGUGGUGGAGACAG", "log2 enrichment": 0.418}
{"Strand": "GUCCUGUGCUACACAUCGUAUGUACCGAAUCGGGAAAAAGGGUUUUUGGGAAAAAGGGAAAGUAUUAUGUUACGCCGUUCGGAUCUGCAC", "log2 enrichment": -1.34}
{"Strand": "UUUCAGGGGAGCUCUUUGCUCAGGCCCCGGUGGAUCAGUUUCCUGGCACAGCUGUGGAGAGUGUGACGGAUUCCAGCAGGUACUUCGUGA", "log2 enrichment": -0.346}
{"Strand": "GUCCUGUGCUACACAUCGUAUGUACCGAAUCGGGGUUUUGGGGUUUUGGGGUUUUGGGAAAGUAUUAUGUUACGCCGUUCGGAUCUGCAC", "log2 enrichment": 0.163}
{"Strand": "UCCUCAAGUCCUGUGCUACACAUCGUAUGUACCGAAUCGGAGGGAGGGGAGGAAAGUAUUAUGUUACGCCGUUCGGAUCUGCACUUCCAG", "log2 enrichment": -0.0789}
{"Strand": "UCAAGUCCUGUGCUACACAUCGUAUGUACCGAAUCGGUUUUUGGUUUGGAAAGGAAAGUAUUAUGUUACGCCGUUCGGAUCUGCACUUCC", "log2 enrichment": -0.504}
{"Strand": "CCUCAAGUCCUGUGCUACACAUCGUAUGUACCGAAUCGGUUGGUUGGGGUUGGAAAGUAUUAUGUUACGCCGUUCGGAUCUGCACUUCCA", "log2 enrichment": 0.121}
{"note": "Repeated from above (study 4):"}
{"Strand": "GUCCUGUGCUACACAUCGUAUGUACCGAAUCGGGAAAAAGGGUUUUUGGGAAAAAGGGAAAGUAUUAUGUUACGCCGUUCGGAUCUGCAC", "log2 enrichment": -1.34}
{"Strand": "UUUCAGGGGAGCUCUUUGCUCAGGCCCCGGUGGAUCAGUUUCCUGGCACAGCUGUGGAGAGUGUGACGGAUUCCAGCAGGUACUUCGUGA", "log2 enrichment": -0.346}
{"Strand": "GUCCUGUGCUACACAUCGUAUGUACCGAAUCGGGGUUUUGGGGUUUUGGGGUUUUGGGAAAGUAUUAUGUUACGCCGUUCGGAUCUGCAC", "log2 enrichment": 0.163}
{"Strand": "UCCUCAAGUCCUGUGCUACACAUCGUAUGUACCGAAUCGGAGGGAGGGGAGGAAAGUAUUAUGUUACGCCGUUCGGAUCUGCACUUCCAG", "log2 enrichment": -0.0789}
{"Strand": "UCAAGUCCUGUGCUACACAUCGUAUGUACCGAAUCGGUUUUUGGUUUGGAAAGGAAAGUAUUAUGUUACGCCGUUCGGAUCUGCACUUCC", "log2 enrichment": -0.504}
